Assay results of several laboratories.
Numbered parts are unrelated; each lists some results of a single study. Substitutions count along the parent as printed.

Set 1
Target: Ras GTPase-activating protein-binding protein 1, C-terminal RGG region (G3BP1, Homo sapiens, UniProt Q13283)
UniProt Q13283, sequence (whole entry, looked up): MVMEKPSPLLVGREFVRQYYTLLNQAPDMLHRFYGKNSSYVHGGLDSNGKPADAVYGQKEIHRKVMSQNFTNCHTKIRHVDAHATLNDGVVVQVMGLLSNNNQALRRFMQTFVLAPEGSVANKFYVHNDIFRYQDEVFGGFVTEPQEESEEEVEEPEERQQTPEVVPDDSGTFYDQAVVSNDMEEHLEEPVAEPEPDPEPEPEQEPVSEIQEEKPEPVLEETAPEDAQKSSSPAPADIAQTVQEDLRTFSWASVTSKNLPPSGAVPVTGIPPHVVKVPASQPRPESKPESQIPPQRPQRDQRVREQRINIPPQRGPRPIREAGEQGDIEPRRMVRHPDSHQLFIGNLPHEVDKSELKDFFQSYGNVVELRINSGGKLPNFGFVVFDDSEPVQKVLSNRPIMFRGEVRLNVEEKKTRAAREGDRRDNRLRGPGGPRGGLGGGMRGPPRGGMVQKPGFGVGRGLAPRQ
Technique: RNA Bind-n-Seq
Form: RNA
Sample: in vitro
Concentration: 1 µM
Notes: whole 134-nt RNA, ends assumed
With: 150 mM KCl
Relative to: input library
Direction: higher = stronger binding
Sequence	log2 enrichment
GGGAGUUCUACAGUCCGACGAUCACCAUGCAGGUGGGCAUCUUUGGGAAGUGGGGCAAGAGGGGGAUAGGGAGGGGGGUAACACUUUGGGAACAGGUGGUCCCAGGUCGUUUCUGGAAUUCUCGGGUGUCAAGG	-0.894
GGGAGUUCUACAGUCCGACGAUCAAGUCCUGUGCUACACAUCGUAUGUACCGAAUCGGGCCCCGGGGCCCCGGGCCCCGGAAAGUAUUAUGUUACGCCGUUCGGAUCUGCACUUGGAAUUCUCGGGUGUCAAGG	-1.61
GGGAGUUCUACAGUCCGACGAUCUCCUGUGCUACACAUCGUAUGUACCGAAUCGGCCCCCCGGGCCCCCCGGGCCCCCCGGGAAAGUAUUAUGUUACGCCGUUCGGAUCUGCAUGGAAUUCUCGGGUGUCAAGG	-1.56
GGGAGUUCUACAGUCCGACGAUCUUGAUUGAUAUUACAGGCAAGAACCAGGAUGAAUGUGUGAUUGCUUUGCAUGACUGCAAUGGAGAUGUCAACAGAGCUAUCAAUGUUCUUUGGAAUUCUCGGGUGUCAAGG	-2.23
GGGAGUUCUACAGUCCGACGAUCUAACUUUAGAGGAGGAUCUGAUGCAUAUGGCAGUGGACGUGGAUUUGGGGAUGGCUAUAAUGGGUAUGGAGGAGGACCUGGAGGUGGCAAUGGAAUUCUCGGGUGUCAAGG	-1.49
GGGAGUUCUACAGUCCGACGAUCCUCAAGUCCUGUGCUACACAUCGUAUGUACCGAAUCGGAAAAAGGAAAGGUGGAAAGUAUUAUGUUACGCCGUUCGGAUCUGCACUUCCAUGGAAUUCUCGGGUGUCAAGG	-1.4
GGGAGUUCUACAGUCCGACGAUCUGUGUUGUGCUCAUUACCAGUGCAGCGACUGCCGUCCCAGGGUGACUCUGAGUUGUCCUUUAUCGUGAGCUAGCAAUGGCUAGCGAAGACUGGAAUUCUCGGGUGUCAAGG	-1.27
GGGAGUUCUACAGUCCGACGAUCAAGUCCUGUGCUACACAUCGUAUGUACCGAAUCGGGGAAAGGGGAAAGGGAAAGGGAAAGUAUUAUGUUACGCCGUUCGGAUCUGCACUUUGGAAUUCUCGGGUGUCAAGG	1.13
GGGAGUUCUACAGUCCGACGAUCUCCUGUGCUACACAUCGUAUGUACCGAAUCGGAAAAAAGGGAAAAAAGGGAAAAAAGGGAAAGUAUUAUGUUACGCCGUUCGGAUCUGCAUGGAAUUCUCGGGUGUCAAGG	-1.12
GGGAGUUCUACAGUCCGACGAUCUUCCUCAAGUCCUGUGCUACACAUCGUAUGUACCGAAUCGGUGGUGGUGGAAAGUAUUAUGUUACGCCGUUCGGAUCUGCACUUCCAGCAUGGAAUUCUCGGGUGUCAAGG	-0.69

Set 2
Target: Phosphate system positive regulatory protein PHO4, full length, GST-tagged (PHO4, Saccharomyces cerevisiae, UniProt P07270, residues 1-312)
Technique: competition protein-binding microarray
Form: double-stranded DNA, one strand shown
Sample: in vitro
Concentration: 2 µM
Notes: whole 60-bp probe, lowest competitor level
With: Cbf1 competitor, 0.05 µM
Direction: higher = stronger binding
Residues (chain): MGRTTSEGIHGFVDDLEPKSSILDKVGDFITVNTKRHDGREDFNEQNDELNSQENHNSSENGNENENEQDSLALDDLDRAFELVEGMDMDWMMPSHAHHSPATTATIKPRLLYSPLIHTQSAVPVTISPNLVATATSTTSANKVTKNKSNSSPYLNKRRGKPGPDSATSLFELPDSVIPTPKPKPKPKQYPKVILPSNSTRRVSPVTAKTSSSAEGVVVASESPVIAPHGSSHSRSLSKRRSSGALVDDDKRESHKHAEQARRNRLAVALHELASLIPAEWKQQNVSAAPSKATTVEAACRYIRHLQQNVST
Sequence	fluorescence intensity [a.u.]
GTCAACGCAGATTTGCAGATGCAAGCAAGAATACATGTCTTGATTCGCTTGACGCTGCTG	4230
GAAGGAGGACTTTCCCTTGTGACAGTCTTGACTTTTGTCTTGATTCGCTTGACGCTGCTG	3320
GCTCAAGCTCAAACACACGTGCAAACAAACCCCCAAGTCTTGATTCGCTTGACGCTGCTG	19100
CATACCCAACCTTGGCGAGTGGGTGAAGATATTTGTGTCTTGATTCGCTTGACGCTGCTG	4340
AAATTACTAAGTTGTCACATTACTTACCCCGTATGAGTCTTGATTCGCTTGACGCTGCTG	4170
AAATTACTAAGTTGTATAGTGGGTGACGCCGTATGAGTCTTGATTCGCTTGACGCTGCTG	4470
CTAATTAAACCTTCACACATGCATAACTATAATGCAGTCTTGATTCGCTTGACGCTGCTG	9010
AAGATGAGCTAAACTCTCGTGGATTAAATTTAAGCGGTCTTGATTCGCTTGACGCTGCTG	6490
CTAACGAAGGTTTGTTTGGTGGGTGACAAGCCAAGTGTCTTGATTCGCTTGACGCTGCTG	3310
TTGGCTACGTCCCTACACGTGTTTTGCGGTCTCGCTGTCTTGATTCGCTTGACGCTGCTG	17900
CTCCCTCTGTGCGGCCACGTGGGACTCGTCGTCTTGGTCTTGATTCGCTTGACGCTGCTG	17700
ATCCGGAGCCCTCCACGCCTGCTAGCTTTGTGTTGGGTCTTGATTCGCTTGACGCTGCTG	6570
TTCAGGGTTGTTCATCACAGCAATAAAAGTATCAACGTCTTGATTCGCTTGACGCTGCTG	3430
CATACCCAACCTTCCCACGTGTTTTAAGATATTTGTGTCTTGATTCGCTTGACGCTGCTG	21200
TTTCGATGGTTAGGCTTCGTGGGTAAAAAGTCGAGCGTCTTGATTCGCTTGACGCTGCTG	5780
AAATTACTAAGTTGGGGCGTGGGTGACGCCGTATGAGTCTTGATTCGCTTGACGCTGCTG	8870
CTCCACTTACTTGTAATACTTTATTATTTTTCACTTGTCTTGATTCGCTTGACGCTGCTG	4400
ATTGTTAAAGTAATCCACGTGTAGTTGATTATTGATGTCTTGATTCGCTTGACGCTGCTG	20500
TTGAACTGCTGGGATCGGATGACGTTTTGGAGGAAGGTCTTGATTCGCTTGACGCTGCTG	3690
AAAAGTTTGTAGCCACTCGTGAAGTTCTCTGTATGTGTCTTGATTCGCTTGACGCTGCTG	5350
AAATTACTAAGTTGGAGGGTGGGTGACGCCGTATGAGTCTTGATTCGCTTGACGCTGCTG	4430
GTCTTGTCTCATTGGAAGGTGGGTGTCCCCACTTCAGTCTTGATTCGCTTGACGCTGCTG	4800
CTTGGCGTTGGTTATTGCGTGCTTTTCAAAAGACTCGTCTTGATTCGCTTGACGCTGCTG	5520

Set 3
Target: RNA binding protein fox-1 homolog 2, RRM domain, GST-SBP tag (RBFOX2, Homo sapiens, UniProt O43251-10, residues 100-194)
Technique: RNA Bind-n-Seq
Form: RNA
Sample: in vitro
Concentration: 365 nM
Notes: natural RNA segment, single round, ends assumed
Relative to: no-protein control
Direction: higher = stronger binding
Residues (chain): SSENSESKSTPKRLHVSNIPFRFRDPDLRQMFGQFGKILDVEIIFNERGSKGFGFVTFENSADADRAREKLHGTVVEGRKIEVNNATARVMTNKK
Sequence	RBNS enrichment (R)
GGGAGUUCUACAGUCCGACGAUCCUGGAGUCUGUUCUCACACCUGUGCGCAGGUUUGCACACUCAAGUUCUCAUGGGCAGGCUCAGGUCUGUCCCGCUGCCCUGGGCACGAGGUCUCCUGAGGACCUGGGCCUUGGAAUUCUCGGGUGCCAA	0.208
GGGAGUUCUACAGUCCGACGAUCCUGCUGUUCCUUGGUCUCUAAUCACCUGAGCUGGGUAAAGGGGAUUCUGGGAGUUGAGAGCUCUGCCAGGGUGAGAUGUUUCCUGAAGAGAGGUUCCCCACCCCUGUAACUGGAAUUCUCGGGUGCCAA	2.34
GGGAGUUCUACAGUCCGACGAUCGUGUCCUCAGCUAACAAAGGCAGGACUCCAGCUGGACUUCUGCAGCUUCCUUCCGAGUCUCCCUAGCCACCCGCACUACUGGACUGUGGAAGGAAGCGUCUACAGAGAACUGGAAUUCUCGGGUGCCAA	0.227
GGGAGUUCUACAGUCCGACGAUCUUAUGUGGCCGUUUCUUUGUUUCUUUGAACAGUGGGAUUUUCAGUGAAAAAGUACCCUCUUUUUCAUUUCCUAUUGCAGUGGUCACAGCUAAUAGUGUCUGAACAUGGUUUGGAAUUCUCGGGUGCCAA	0.255
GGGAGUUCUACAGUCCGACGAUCCUUUUUGUAUAGAAAGCACUACCCUAAGCCAUGAAGAACUCCAUGCUUUGCUAACCAAGAUAACUGUUUUCUCUUUGUAGAAGUUUUGUUUUUGAAAUGUGUAUUUCUAAUGGAAUUCUCGGGUGCCAA	0.575
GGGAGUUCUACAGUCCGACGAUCCAGGACUAUCUCUUUAUGGAAGGAGACAUAUGGGAACAUCCACCACUACCCUCUCCUACCAUCUUCCUGGGAAUGUGGCCUACCACUACCAGAGCUCCUGCCUACCAAGAUGGAAUUCUCGGGUGCCAA	0.446
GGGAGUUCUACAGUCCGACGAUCUUUAAGACCAUGAUAAUAGAGUAAAAAGGAAAGAAAGCCAGAAAUUACAAUUUUGGAUGCUAAAAAGUAACUUUCUAGUUAACCCUAAAGUCCUGUCAGAUUGUGAAGAAUGGAAUUCUCGGGUGCCAA	0.57
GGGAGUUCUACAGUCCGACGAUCUUCACCUUACAUUCUGGAUGCAUUCAGAUCUCGGACGUCCUUAAGUGAAAUGAAUAUACAUGUCUAUGGACUUAAUAUCAUGCCCAGAUAUGAAGACCUCGUUCAACUUUUGGAAUUCUCGGGUGCCAA	0.426
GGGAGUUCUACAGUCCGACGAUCAUUCCACAUUCUAGGGUAUUCUGUAAUUUGGCUCCUUACCAAUAUUAUUAAAAUCUUAUUAAAAUCUCCCUACCAAAGCAUGUACAUUUUUAUGUUAUUAUAAUUAUAUGUGGAAUUCUCGGGUGCCAA	8.86

Mixed results
CCNF: CCNF, cyclin fold, Cln2 fusion (human)
P1: CABLES2 docking peptide (human); ICAKRSLCAAFSV; partner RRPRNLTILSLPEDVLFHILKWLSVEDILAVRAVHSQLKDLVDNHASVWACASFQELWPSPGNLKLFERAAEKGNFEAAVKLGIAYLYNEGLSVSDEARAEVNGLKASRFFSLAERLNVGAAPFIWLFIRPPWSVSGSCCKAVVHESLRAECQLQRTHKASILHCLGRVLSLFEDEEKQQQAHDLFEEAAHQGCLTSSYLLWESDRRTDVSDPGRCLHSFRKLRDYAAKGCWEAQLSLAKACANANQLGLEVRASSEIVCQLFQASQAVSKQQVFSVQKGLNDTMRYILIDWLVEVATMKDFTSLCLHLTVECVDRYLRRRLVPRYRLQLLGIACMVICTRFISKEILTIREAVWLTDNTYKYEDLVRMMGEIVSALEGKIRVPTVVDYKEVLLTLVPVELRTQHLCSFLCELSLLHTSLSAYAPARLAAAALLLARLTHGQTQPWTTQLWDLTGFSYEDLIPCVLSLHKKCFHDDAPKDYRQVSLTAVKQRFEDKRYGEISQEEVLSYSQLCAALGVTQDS
Molecule	tested on	assay	test system	setting	how to read	endpoint	value
P1 C2A	CCNF	yeast growth competition, sequencing	yeast	strong parent motif	relative to: not given, higher = stronger binding	normalised enrichment score	2.03
PPVIIKYIIINRF	Saccharomyces cerevisiae	binding, competitive growth deep sequencing	peptide, cyclin E1-Cln2 fusion strain	concentration not given, peptide library 2	direction not given	growth enrichment score	0.355
PSSMRKICTYFHR	Saccharomyces cerevisiae	binding, competitive growth deep sequencing	peptide, cyclin D3-Cln2 fusion strain	concentration not given, peptide library 2	direction not given	growth enrichment score	0.0917
P1 L7A	CCNF	yeast growth competition, sequencing	yeast	strong parent motif	relative to: not given, higher = stronger binding	normalised enrichment score	0.252

Excerpt of the above (set 2):
Sequence	fluorescence intensity [a.u.]
AAATTACTAAGTTGGAGGGTGGGTGACGCCGTATGAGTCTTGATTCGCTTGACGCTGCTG	4430
GTCTTGTCTCATTGGAAGGTGGGTGTCCCCACTTCAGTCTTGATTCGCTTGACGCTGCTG	4800
CTTGGCGTTGGTTATTGCGTGCTTTTCAAAAGACTCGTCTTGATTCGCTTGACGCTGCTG	5520
